Experimental data from different studies.
Each numbered part is a random draw from the data of one study; scales do not carry over between parts.

Block 1 — technique: protein-binding microarray; form: double-stranded DNA, one strand shown; medium: in vitro; concentration: 250 nM; notes: 60-bp whole probe; added: salmon DNA 0.4 mg/ml; baseline: random background probes; direction: higher = stronger binding; endpoint: log fluorescence; shared flanks, not repeated: GCCTAGCAC … GTCTTGATTCGCTTGACGCTGCTG
Target: Interferon regulatory factor 5, full length, phosphomimetic (IRF5, Homo sapiens, UniProt Q13568-2, residues 1-514, K96S/S451D/S453D/S456D/S462D)
GACGCTATCGGACTGGGGACGTGCTAG: 1 z-score
GACGGTATCGTTTTCGGGACGTGCTAG: 4.66 z-score
GACGGACTTGGGTATCGGGACGTGCTA: 0.283 z-score
CGTCATTTCACAGTTAACCAGTGCTAG: 0.911 z-score
GACGATTTCAGTTCCGCGACGTGCTAG: 1.21 z-score
TAGAGGGAGTAAAGGAAAGAGTGCTAG: -0.391 z-score
TCATGTTTGGGTCTTGTACTGTGCTAG: 0.0995 z-score
TCACATTTTGGTTTTCCACTGTGCTAG: 1.29 z-score
TTTTTTTTTTTTTTTGTATTGTGCTAG: 1.53 z-score

Block 2 — technique: protein binding microarray; form: double-stranded DNA, one strand shown; medium: in vitro; concentration: not given; baseline: not given; direction: higher = stronger binding; endpoint: E-score
Target: Histone acetyltransferase KAT6A, winged helix 1, GST fusion (KAT6A, Homo sapiens, UniProt Q92794, residues 1-85)
Notes: 8-mer, flanks averaged, mean of 2 arrays, mostly near background
Target sequence (chain): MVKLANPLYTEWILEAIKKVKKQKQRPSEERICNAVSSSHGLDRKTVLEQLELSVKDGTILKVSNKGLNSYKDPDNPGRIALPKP
CACAGGTA: -0.124
ATTCTCTC: -0.0824
ATCGTTCG: -0.0744
CATTTGAA: -0.0468
ACACACTC: -0.152
GGCCTGTA: 0.022
ACACCCCT: -0.0985
GACCCTGA: -0.104
CCTCCTAA: -0.145
GCTCTCCA: -0.263
CTCCAAGC: -0.109
ATACAACG: -0.0284
AGGCTACG: -0.0184

Block 3 — technique: RNA Bind-n-Seq; form: RNA; medium: in vitro; concentration: 365 nM; baseline: no-protein control; direction: higher = stronger binding; endpoint: RBNS enrichment (R)
Target: RNA binding protein fox-1 homolog 2, RRM domain, GST-SBP tag (RBFOX2, Homo sapiens, UniProt O43251-10, residues 100-194)
Notes: natural RNA segment, single round, ends assumed
Shared flanks, not repeated: GGGAGUUCUACAGUCCGACGAUC … UGGAAUUCUCGGGUGCCAA
Construct (chain): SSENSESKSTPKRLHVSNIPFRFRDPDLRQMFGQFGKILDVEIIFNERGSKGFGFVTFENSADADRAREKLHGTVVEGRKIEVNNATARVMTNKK
CAUUUUGUACAUUCAAUAGAGGAAAGACUAACAUAUGCACUUUAUCUCAAGAUCUUCCAGUGCAUAUACACUCACGUGGGAGAGCACUUCAUAUCCACCAAGCAGACAUA: 0.308
CAGGAAGCACUUGUCCCCCCUGGCACGGAAUCCAGAGGGUUCCUCGUCCUUUACCAGUGUCAACCCCAGAGGCUUUCUCUCUCCAGAACUGGCCAGCUAGAGACCGUUCU: 0.438
GAGCUGUUGCUGUUGUCAGUCGAGUGCAGUUUUCUGCAGCGAUGUCAUAAGGAGUCAGAUUCCGUGACCUCCUCUUUGAUGGAGGACACACUGAACUGAAGGGGACUUGC: 0.279
CCUGGGUUUUUCUUGGAAGAAAGGACUCUAGGGUGGAUGGUACCAGGCCUUCAGGGUUAGAUCAUCUGUCAAGUGUCACCGAUGGGGACUUCUCAUGACCAGAGGGCUCU: 0.24
CUGGGUGAAUGAUCAGACCCUGGUAGCUAAGAAGGAACUUGUCCCUUUGAGUCAGUGUGCAGACCCCCUUUCAGGCCAUGCCUCUGUGAACCCUGUAUUGCUGGGGCCGG: 1.97
CUAUUGGGCUCUUAGACACAGACCUGAGCCAUGAACCCAAGCCACGUAUCUACACCAUAGCUGCCUCUCAGCUGGCUACAUAAGGAAACAUUAGGGAUUAACUGUCAGAA: 0.245
UUCUACAGGAAUACCUCUGAGCCUGCCCACCGGGAGCCGCCACAUCACAGCACAAGUGGCUGCAGCCUCCGCGGGGAACCAGGCGGGAGGGACUGAGUGGCCCGCGGGCC: 0.528
UGUAUACUGCUUGUGUUUGGGUUGAAGCACUACCUGACAUUAAAGGAAGGACUUGGAGAGAGAAUGCAUUUGCUGUGUCCAUCUCUUGAGUUGCGAUUACCCAGUAUCCU: 0.449
AGAGCUAAACAUGAGUUUAGACACACAAGAUUCUAAAAUGCAAAUGUUUAUUUUGAAGCAGGCAUUGACAACACAAAAACUGUGUAGUGGUCUUGAUGCUGGAUUGUUUC: 0.377
CAGCCAAUAAGAUAAUAGCAGAAUUAGCCAAUCCUAAAACCUUCUAAAGACGAUUUUUGAGCAUCCCACUGGGAUUAUUUAAUUUUUCUUUUUGACGUGUGUUUUUAGUU: 1.05
UUUCUACUUCUCUACAGCAGCUGUCAGUGUUUUGUACUUGUAGACACCUAAUAAAUUGAUCAUUUGCAAAGAACACUGAUUGAAUUUGCUUCUCUUAUUUUUUAAGAGAC: 0.344

Mixed results
PhoQ, residues 284 288 289 292 302 303 ALVSVA
fold induction (PhoP, residues 12 14 15 18 19 TPLRH (Escherichia coli, UniProt P23836); Sort-seq, refers to: YFP reporter; E. coli; PhoQ-PhoP variant library, added: 10 µM Mg2+; baseline: high Mg2+ state, higher = stronger signaling): 0.906
